Measurements pooled from the literature.
Every numbered part comes from another study and shows a few of its results, in no order. Substitutions count along the parent as printed.

Sample 1 — technique: protein-binding microarray; form: hairpin DNA; matrix: in vitro; concentration: not given; baseline: not given; reading: higher = stronger binding
Target: Hepatocyte nuclear factor 3-beta, forkhead domain (FOXA2, Homo sapiens, UniProt Q9Y261, residues 142-269)
Setting: whole hairpin DNA, median over replicate spots
Construct (chain): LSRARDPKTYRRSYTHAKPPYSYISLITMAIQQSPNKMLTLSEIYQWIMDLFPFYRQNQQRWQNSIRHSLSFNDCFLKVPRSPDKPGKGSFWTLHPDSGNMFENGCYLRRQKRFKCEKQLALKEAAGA
Oligonucleotide	median fluorescence
GAGGCCATGCAAACAACGCCTCCTGGCGTTGTTTGCATGGCCTCACACTC	3720 a.u.
GAGGCCATGTAACCAAGGCCTCCTGGCCTTGGTTACATGGCCTCACACTC	2790 a.u.
GAGGCCATGTAAACACCGCCTCCTGGCGGTGTTTACATGGCCTCACACTC	4250 a.u.
GAGGCCATGTAACCAATGCCTCCTGGCATTGGTTACATGGCCTCACACTC	3230 a.u.
GAGGCCAGGTAACCAACGCCTCCTGGCGTTGGTTACCTGGCCTCACACTC (5mC at 37)	3250 a.u.
GAGGCCATGTAAACAAGGCCTCCTGGCCTTGTTTACATGGCCTCACACTC (5mC at 28)	4160 a.u.
GAGGCCCGGCAAACAACGCCTCCTGGCGTTGTTTGCCGGGCCTCACACTC	3760 a.u.
GAGGCCATCGAAACAACGCCTCCTGGCGTTGTTTCGATGGCCTCACACTC (5mC at 35)	3130 a.u.

Sample 2 — technique: DHFR PCA, deep sequencing; matrix: yeast; with: (+)-ABA 2500 µM; baseline: wild-type fitted maximum; reading: higher = stronger binding
Target: ABI1, truncated, D143A, DHFR fusion (Arabidopsis thaliana)
Setting: methotrexate growth selection, single substitutions
Starting sequence: PYL1, truncated, DHFR fusion (Arabidopsis thaliana); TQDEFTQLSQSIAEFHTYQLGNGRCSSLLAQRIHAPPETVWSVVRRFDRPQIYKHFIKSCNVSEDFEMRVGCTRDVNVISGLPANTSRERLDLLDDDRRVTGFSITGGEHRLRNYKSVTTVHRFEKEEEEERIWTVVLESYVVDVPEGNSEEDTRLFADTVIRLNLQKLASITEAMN; partner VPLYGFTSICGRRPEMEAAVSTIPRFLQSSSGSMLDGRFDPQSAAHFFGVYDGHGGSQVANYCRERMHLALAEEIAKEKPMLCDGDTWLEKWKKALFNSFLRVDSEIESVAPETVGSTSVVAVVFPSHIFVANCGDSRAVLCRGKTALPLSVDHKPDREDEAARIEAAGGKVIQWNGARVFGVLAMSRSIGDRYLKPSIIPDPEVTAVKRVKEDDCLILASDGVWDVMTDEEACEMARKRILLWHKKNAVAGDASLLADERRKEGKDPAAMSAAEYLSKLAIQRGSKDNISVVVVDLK
Substitution	relative binding score
I162H	62%
L112F	103%
L156E	94.5%
S42T	98.2%
L91D	-20.5%
L169N	-19.4%
L164S	99.6%
V142W	82.7%

Sample 3 — technique: protein-binding microarray; form: double-stranded DNA, one strand shown; matrix: in vitro; concentration: 0.8 µM; setting: whole 60-bp probe, no competitor; reading: higher = stronger binding
Target: Centromere-binding protein 1, full length, N-terminal tag (CBF1, Saccharomyces cerevisiae, UniProt P17106, residues 1-351)
UniProt P17106, sequence (whole entry, looked up): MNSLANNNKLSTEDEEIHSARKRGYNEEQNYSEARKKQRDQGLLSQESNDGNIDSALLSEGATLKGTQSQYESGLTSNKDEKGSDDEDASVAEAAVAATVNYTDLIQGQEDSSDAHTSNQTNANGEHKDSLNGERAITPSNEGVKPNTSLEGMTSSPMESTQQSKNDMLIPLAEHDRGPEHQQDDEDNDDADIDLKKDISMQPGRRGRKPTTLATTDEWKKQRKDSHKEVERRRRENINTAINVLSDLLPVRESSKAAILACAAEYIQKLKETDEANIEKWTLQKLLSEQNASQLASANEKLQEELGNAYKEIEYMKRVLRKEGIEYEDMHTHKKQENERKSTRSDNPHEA
Oligonucleotide	fluorescence intensity
CTAACTACGCCAACGTGATTGGCAATTGTGCTCTTCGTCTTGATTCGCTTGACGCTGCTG	1460 a.u.
GAAAATTACCCATAAACCACCACCTAGTGTCAATAGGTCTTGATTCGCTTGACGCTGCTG	528 a.u.
CCTAACTACTATATCCACGTGGAATAGCTTCGTACAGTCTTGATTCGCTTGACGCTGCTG	3710 a.u.
CTACCGATTAAAGTGGTCGTGATTCAGTATTTTTTCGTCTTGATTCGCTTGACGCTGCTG	768 a.u.
GAATCGGTATATTAACAGCACGTGTATTTTCTTTAGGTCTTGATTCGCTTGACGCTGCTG	7140 a.u.
CTAGGACAAATGAAGCACATGCAAAGAGTTAACTTCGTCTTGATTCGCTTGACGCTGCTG	739 a.u.
CTATTATCAAAAAAGTGCGTGGTCACTCTAGACTTCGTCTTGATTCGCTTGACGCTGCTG	545 a.u.
GAAAAATTTATACTCTACACCACCTTCGTTATTTAGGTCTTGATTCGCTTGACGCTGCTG	493 a.u.

Further values, each from its own experiment
SMILES	test system	setting	endpoint	result
CC(c1ccc(NC(=O)N2CCC=C(F)C2)cc1)N1CCOCC1 (stereo not shown)	mouse, microsomes or S9	2 µM, 0.5 h	remaining compound	91.4%

A few entries again (sample 2):
Substitution	relative binding score
I162H	62%
L156E	94.5%
